{"data": "Assay results gathered from unrelated publications", "4'-phosphopantetheinyl transferase PptT": "4'-phosphopantetheinyl transferase PptT (Mycobacterium tuberculosis, UniProt O33336)", "eis": "N-acetyltransferase Eis (eis, Mycobacterium tuberculosis, UniProt P9WFK7)", "folA": "Dihydrofolate reductase (folA, Mycobacterium tuberculosis, UniProt P9WNX1)", "note": "Lines come from different studies, so protocols differ. ± gives the spread as reported.", "sequence of UniProt O33336 (whole entry, looked up)": "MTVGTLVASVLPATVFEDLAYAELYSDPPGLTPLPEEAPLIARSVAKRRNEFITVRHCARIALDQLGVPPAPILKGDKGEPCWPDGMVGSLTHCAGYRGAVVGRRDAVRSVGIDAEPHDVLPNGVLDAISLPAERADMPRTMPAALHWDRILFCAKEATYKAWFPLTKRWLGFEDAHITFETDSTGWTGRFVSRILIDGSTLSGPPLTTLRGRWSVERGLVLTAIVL", "sequence of UniProt P9WNX1 (whole entry, looked up)": "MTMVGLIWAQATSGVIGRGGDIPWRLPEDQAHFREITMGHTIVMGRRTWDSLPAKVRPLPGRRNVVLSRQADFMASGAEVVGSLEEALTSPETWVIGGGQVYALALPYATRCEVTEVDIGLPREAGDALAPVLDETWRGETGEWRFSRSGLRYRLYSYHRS", "sequence of UniProt P9WFK7 (whole entry, looked up)": "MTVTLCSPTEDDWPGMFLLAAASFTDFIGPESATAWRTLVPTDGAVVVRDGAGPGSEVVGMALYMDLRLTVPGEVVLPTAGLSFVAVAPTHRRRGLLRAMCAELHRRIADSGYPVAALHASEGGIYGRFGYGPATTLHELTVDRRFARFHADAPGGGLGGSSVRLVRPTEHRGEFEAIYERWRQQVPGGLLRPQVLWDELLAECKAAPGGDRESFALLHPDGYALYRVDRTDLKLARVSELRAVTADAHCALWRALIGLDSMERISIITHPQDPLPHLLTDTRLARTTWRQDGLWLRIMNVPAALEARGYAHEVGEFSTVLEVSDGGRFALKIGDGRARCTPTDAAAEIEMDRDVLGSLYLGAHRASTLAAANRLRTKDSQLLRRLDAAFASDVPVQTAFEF", "sequence of UniProt P21554 (whole entry, unmodified, looked up)": "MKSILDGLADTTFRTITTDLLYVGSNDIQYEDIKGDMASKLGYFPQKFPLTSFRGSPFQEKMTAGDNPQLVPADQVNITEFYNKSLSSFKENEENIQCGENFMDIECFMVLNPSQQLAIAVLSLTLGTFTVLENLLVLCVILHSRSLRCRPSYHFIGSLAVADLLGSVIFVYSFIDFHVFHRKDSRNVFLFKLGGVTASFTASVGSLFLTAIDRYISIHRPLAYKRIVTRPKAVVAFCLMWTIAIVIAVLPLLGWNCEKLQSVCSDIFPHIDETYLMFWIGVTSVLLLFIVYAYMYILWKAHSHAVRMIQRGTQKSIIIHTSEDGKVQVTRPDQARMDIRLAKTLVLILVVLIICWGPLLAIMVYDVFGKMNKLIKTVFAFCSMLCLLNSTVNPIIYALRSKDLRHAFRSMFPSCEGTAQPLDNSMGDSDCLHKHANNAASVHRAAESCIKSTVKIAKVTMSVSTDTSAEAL", "sequence of UniProt P9WGM7 (whole entry, looked up)": "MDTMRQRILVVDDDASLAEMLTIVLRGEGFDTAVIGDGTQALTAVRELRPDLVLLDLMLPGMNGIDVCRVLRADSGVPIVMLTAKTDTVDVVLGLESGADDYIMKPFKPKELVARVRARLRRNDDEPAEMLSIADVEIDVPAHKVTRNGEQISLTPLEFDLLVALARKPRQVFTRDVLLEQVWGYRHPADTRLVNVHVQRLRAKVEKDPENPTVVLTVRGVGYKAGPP", "sequence of UniProt P01901 (whole entry, looked up)": "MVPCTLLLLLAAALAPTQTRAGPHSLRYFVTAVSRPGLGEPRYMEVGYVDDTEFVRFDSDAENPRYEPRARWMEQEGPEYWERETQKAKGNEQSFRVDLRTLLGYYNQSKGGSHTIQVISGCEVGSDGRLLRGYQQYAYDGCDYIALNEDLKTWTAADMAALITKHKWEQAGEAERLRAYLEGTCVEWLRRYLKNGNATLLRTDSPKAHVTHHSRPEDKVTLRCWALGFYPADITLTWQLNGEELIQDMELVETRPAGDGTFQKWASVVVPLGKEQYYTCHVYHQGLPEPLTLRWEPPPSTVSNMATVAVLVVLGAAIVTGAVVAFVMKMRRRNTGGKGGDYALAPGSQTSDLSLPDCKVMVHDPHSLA", "sequence of UniProt Q9ULV8 (whole entry, looked up)": "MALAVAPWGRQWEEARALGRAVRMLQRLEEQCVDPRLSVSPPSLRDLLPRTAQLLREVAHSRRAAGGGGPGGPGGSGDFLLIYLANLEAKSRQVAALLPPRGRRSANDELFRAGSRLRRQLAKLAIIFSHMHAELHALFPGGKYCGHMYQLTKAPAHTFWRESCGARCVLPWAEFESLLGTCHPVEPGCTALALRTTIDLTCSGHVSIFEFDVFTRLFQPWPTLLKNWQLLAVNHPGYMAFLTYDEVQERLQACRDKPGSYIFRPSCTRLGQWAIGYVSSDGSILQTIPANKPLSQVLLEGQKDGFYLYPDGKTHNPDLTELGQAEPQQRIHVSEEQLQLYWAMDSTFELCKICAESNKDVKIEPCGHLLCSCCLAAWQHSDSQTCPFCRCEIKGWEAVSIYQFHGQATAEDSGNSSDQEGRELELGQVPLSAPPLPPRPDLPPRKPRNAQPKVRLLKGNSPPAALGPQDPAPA", "sequence of UniProt P19969 (whole entry, looked up)": "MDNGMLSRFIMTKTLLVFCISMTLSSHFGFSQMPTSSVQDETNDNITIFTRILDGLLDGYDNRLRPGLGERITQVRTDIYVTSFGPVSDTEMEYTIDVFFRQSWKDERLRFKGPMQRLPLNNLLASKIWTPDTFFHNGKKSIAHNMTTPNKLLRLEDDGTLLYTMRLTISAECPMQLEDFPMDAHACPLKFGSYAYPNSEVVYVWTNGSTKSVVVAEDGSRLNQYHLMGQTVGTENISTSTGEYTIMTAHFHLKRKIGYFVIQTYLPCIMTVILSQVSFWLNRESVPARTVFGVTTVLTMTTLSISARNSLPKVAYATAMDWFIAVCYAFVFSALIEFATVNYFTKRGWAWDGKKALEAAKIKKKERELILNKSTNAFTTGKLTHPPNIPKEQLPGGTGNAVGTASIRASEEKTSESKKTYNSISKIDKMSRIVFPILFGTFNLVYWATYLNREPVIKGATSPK", "sequence of UniProt P33261 (whole entry, looked up)": "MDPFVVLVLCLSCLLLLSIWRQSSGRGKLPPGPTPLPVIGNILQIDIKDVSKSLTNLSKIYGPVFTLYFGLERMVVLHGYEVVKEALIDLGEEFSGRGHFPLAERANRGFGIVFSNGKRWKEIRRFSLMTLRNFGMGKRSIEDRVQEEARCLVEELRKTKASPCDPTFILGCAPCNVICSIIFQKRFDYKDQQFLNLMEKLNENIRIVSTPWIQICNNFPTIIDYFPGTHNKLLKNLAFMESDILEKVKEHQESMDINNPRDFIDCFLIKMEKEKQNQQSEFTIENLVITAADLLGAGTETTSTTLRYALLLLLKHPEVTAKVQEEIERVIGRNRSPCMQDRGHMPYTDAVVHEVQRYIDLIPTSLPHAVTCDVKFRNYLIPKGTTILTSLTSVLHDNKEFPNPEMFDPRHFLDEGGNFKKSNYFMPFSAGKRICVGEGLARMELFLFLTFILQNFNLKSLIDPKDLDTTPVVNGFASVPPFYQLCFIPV", "sequence of UniProt P34972 (whole entry, looked up)": "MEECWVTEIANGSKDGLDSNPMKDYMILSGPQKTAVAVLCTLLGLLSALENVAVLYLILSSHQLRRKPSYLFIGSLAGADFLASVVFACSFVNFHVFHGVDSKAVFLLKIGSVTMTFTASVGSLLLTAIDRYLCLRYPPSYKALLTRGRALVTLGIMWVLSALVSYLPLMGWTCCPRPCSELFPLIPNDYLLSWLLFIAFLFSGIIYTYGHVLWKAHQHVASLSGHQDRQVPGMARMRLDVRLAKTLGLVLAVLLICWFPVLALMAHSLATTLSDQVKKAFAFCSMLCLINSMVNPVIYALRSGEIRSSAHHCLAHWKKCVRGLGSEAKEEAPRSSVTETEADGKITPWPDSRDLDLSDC", "sequence of UniProt O60656 (whole entry, looked up)": "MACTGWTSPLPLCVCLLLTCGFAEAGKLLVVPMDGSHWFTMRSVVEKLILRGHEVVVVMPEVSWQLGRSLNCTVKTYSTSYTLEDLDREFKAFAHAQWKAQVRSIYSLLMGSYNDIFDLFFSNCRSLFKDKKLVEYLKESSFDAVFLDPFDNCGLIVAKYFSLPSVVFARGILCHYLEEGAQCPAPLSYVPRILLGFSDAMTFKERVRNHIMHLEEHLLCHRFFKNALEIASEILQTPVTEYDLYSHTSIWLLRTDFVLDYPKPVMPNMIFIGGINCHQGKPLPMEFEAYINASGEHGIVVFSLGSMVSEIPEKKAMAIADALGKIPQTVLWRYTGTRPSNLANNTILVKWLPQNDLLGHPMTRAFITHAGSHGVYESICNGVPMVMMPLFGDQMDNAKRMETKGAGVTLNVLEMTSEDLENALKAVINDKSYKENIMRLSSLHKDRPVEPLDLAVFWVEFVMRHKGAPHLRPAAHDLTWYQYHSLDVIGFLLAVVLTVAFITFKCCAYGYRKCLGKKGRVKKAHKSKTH", "sequence of UniProt O75469 (whole entry, looked up)": "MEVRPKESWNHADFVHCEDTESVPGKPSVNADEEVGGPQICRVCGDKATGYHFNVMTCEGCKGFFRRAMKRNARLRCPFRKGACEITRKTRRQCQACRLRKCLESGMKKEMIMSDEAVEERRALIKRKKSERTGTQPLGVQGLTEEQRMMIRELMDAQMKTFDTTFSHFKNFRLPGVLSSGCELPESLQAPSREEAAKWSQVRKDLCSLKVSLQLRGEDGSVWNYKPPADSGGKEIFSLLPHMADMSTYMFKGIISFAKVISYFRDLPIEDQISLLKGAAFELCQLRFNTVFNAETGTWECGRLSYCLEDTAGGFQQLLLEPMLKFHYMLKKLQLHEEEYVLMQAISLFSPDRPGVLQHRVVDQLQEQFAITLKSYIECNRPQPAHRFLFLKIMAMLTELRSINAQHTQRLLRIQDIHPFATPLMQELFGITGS", "sequence of UniProt P9WPA5 (whole entry, looked up)": "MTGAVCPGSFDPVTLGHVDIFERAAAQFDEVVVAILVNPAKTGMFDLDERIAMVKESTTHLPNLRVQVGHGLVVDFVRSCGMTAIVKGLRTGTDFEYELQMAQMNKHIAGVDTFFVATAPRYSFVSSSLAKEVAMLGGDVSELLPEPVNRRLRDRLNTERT"}
{"Compound": "Cc1nc(=O)c2cc(CN(C)c3ccc(C(=O)NCCCS(N)(=O)=O)s3)ccc2[nH]1", "target": "4'-phosphopantetheinyl transferase PptT", "test": "enzyme activity, inhibitor, fluorescence polarization", "setting": "enzyme 100 nM", "measurement": "IC50", "value": "0.76 µM"}
{"Compound": "CCOC(=O)C1C(OC(c2ccc(Cl)cc2)c2ccc(Cl)cc2)CC2CCC1N2C (single isomer, unassigned)", "target": "SIGMAR1 (Cavia porcellus, UniProt Q60492)", "test": "radioligand binding", "system": "guinea pig", "setting": "racemate, with: [3H](+)-pentazocine", "measurement": "Ki", "value": "8.28 µM"}
{"Compound": "CCCCCn1cc(C(=O)c2ccc3c(c2)CC(C)(C)C3)c2ccccc21", "target": "CNR1 (Homo sapiens, UniProt P21554, L193I)", "test": "G protein activation, agonist, BRET", "measurement": "EC50", "value": "0.708 µM"}
{"Compound": "CCC1(O)CC2CN(CCc3c([nH]c4ccccc34)C(C(=O)OC)(c3cc4c(cc3OC)N(C)C3C(O)(C(=O)OC)C(OC(=O)CCC5=[N+]6C(=Cc7c(C)cc(C)n7[B-]6(F)F)C=C5)C5(CC)C=CCN6CCC43C65)C2)C1 (centres unmarked)", "target": "NR1I2 (Homo sapiens, UniProt O75469)", "test": "binding", "setting": "30 min, pH 7.5", "measurement": "Kd", "value": "0.297 µM"}
{"Compound": "C#CCN(Cc1ccc2nc(N)[nH]c(=O)c2c1)c1ccc(C(=O)N[C@@H](CCC(=O)O)C(=O)O)cc1", "target": "4'-phosphopantetheinyl transferase PptT", "test": "enzyme activity, inhibitor, fluorescence polarization", "setting": "enzyme 100 nM", "measurement": "IC50", "value": "0.27 µM"}
{"Compound": "CN(C)CCNC(=O)CSc1nc(N)c2c3c(sc2n1)CCCCC3", "target": "eis", "test": "inhibitor", "measurement": "IC50", "value": "8.7 ± 1.2 µM"}
{"Compound": "CC[C@H](C)[C@H](NC(=O)[C@@H](NC(=O)[C@@H](N)CO)[C@@H](C)CC)C(=O)N[C@@H](CC(N)=O)C(=O)N[C@@H](Cc1ccccc1)C(=O)N[C@@H](CCC(=O)O)C(=O)N[C@@H](CCCCN)C(=O)N[C@@H](CC(C)C)C(=O)O", "target": "H-2 class I histocompatibility antigen, K-B alpha chain, 25 (H2-K1, Mus musculus, UniProt P01901)", "setting": "37 °C", "measurement": "Kd", "value": "0.0822 µM"}
{"Compound": "CCC1CCc2c(sc3nc(SCCN4CCCC4)nc(N)c23)C1 (centres unmarked)", "target": "eis", "test": "inhibitor", "measurement": "IC50", "value": "> 200 µM"}
{"Compound": "O=C1CC(=O)N(c2ccccc2)c2cc(Cl)ccc2N1", "target": "Gabrg2/Gabra5, with β2 subunit (Rattus norvegicus, UniProt P18508+P19969)", "test": "GABA current potentiation, positive allosteric modulator, whole-cell patch clamp", "system": "HEK293", "setting": "with: GABA at EC10", "measurement": "EC50", "value": "0.58 ± 0.18 µM"}
{"Compound": "CC(C)(C)OC(=O)NCCC[C@H](NC(=O)c1ccc(NCc2ccc3nc(N)nc(N)c3c2Cl)cc1)C(=O)O", "target": "folA", "test": "enzyme activity, inhibitor", "measurement": "IC50", "value": "0.0231 µM"}
{"Compound": "CCCCCn1cc(C(=O)c2cccc3ccccc23)c2ccccc21", "target": "CNR2 (Homo sapiens, UniProt P34972)", "test": "G protein activation, agonist, BRET", "measurement": "EC50", "value": "0.0038 µM"}
{"Compound": "Nc1nc(SCCN2CCCC2)nc2sc3c(c12)CCCC3", "target": "eis", "test": "inhibitor", "measurement": "IC50", "value": "0.99 ± 0.06 µM"}
{"Compound": "CCCCCc1cc(O)c2c(c1)OC(C)(C)C1CCC(C)=CC21 (single isomer, unassigned; (-))", "target": "CYP2C19 (Homo sapiens, UniProt P33261)", "test": "enzyme activity, inhibitor", "system": "microsomes from HEK293 cells", "setting": "pH 7.4, with: omeprazole", "measurement": "IC50", "value": "3.6 ± 0.7 µM"}
{"Compound": "CCCCCc1cc(O)c2c(c1)OC(C)(C)C1CCC(C)=CC21 (single isomer, unassigned; (-))", "target": "UGT1A9 (Homo sapiens, UniProt O60656)", "test": "inhibitor", "system": "HEK293 overexpressing UGT1A9, recombinant UGT1A9 microsomes", "setting": "pH 7.4, with: acetaminophen glucuronidation", "measurement": "IC50", "value": "0.49 ± 0.15 µM"}
{"Compound": "O=C(O)c1cn(Cc2ccccc2F)c2ccccc12", "target": "E3 ubiquitin-protein ligase CBL-C (Homo sapiens, UniProt Q9ULV8)", "test": "binding, NMR", "measurement": "Kd", "value": "610 µM"}
{"Compound": "Nc1nc(SCC(=O)NCCN2CCOCC2)nc2sc3c(c12)CCC3", "target": "eis", "test": "inhibitor", "measurement": "IC50", "value": "17 ± 1 µM"}
{"Compound": "Cc1nc(=O)c2cc(CN(C)c3ccc(C(=O)NCCCc4nn[nH]n4)s3)ccc2[nH]1", "target": "4'-phosphopantetheinyl transferase PptT", "test": "enzyme activity, inhibitor, fluorescence polarization", "setting": "enzyme 100 nM", "measurement": "IC50", "value": "1.01 µM"}
{"Compound": "CC(C)(C)C1CCc2c(sc3nc(SCC(=O)NCCN4CCOCC4)nc(N)c23)C1 (centres unmarked)", "target": "eis", "test": "inhibitor", "measurement": "IC50", "value": "> 200 µM"}
{"Compound": "O=S(=O)(O)CCOCC1CSSCC(COCCS(=O)(=O)O)SS1 (centres unmarked)", "target": "DNA-binding response regulator MtrA, C-terminal domain (mtrA, Mycobacterium tuberculosis, UniProt P9WGM7)", "test": "binding, LSPR", "measurement": "Kd", "value": "8.5 ± 0.8 µM"}
{"Compound": "C#CCN(Cc1ccc2nc[nH]c(=O)c2c1)c1ccc(C(=O)N[C@@H](CCC(=O)O)C(=O)O)cc1", "target": "4'-phosphopantetheinyl transferase PptT", "test": "enzyme activity, inhibitor, fluorescence polarization", "setting": "enzyme 100 nM", "measurement": "IC50", "value": "0.33 µM"}
{"Compound": "CCC1CCc2c(sc3nc(SCC(=O)NCCN(C)C)nc(N)c23)C1 (centres unmarked)", "target": "eis", "test": "inhibitor", "measurement": "IC50", "value": "1.1 ± 0.1 µM"}
{"Compound": "CSCC[C@H](NC(=O)[C@@H]1CSSC[C@H](NC(=O)[C@H](CCCCN)NC(=O)[C@H](Cc2ccc(O)cc2)NC(=O)CNC(=O)[C@@H](N)CC(C(=O)O)C(=O)O)C(=O)N[C@@H](C(C)C)C(=O)N[C@H](Cc2c[nH]c3ccccc23)C(=O)N[C@@H](CCCCN)C(=O)N[C@@H]([C@@H](C)O)C(=O)N1)C(=O)N1C[C@H](O)C[C@H]1C(=O)N[C@@H](C)C(=O)O", "target": "SSTR2 (Homo sapiens, UniProt P30874)", "test": "β-arrestin recruitment, agonist", "measurement": "EC50", "value": "> 300 µM"}
{"Compound": "CSCC[C@@H]1NC(=O)[C@H](CCCNC(=N)N)NC(=O)[C@H](Cc2ccc(O)cc2)NC(=O)[C@@H](NC(=O)[C@H](CCCNC(=N)N)NC(=O)[C@H](CCCCN)NC(=O)[C@H](CC(=O)O)NC(=O)[C@H](C)N)CSSC[C@@H](C(=O)N[C@@H](CCCNC(=N)N)C(=O)N[C@@H](Cc2ccc(O)cc2)C(=O)NCC(=O)O)NC(=O)CNC(=O)[C@H](CCCCN)NC(=O)[C@H](CCCCN)NC(=O)[C@@H]2CSSC[C@H](NC1=O)C(=O)N[C@@H](CCC(N)=O)C(=O)N[C@@H](CCCNC(=N)N)C(=O)N[C@@H](Cc1ccc(O)cc1)C(=O)N[C@@H](Cc1c[nH]cn1)C(=O)N[C@@H](CCC(N)=O)C(=O)N[C@@H](CCCNC(=N)N)C(=O)N[C@@H](CCCNC(=N)N)C(=O)N[C@@H](CCC(N)=O)C(=O)N[C@@H](CCCNC(=N)N)C(=O)N[C@@H](CCCNC(=N)N)C(=O)N[C@@H](CCC(N)=O)C(=O)N2", "target": "Potassium voltage-gated channel subfamily A member 6 (Rattus norvegicus, UniProt P17659)", "measurement": "EC50", "value": "0.01 µM"}
{"Compound": "Cc1nc2ccc(CN(C)c3ccc(C(=O)N[C@H](CCC(=O)O)C(=O)O)s3)cc2c(=O)[nH]1", "target": "4'-phosphopantetheinyl transferase PptT", "test": "enzyme activity, inhibitor, fluorescence polarization", "setting": "enzyme 100 nM", "measurement": "IC50", "value": "0.07 µM"}
{"Compound": "CC(=O)NCCCC[C@H](NC(=O)CNC(=O)CNC(=O)[C@@H](NC(=O)[C@H](CO)NC(=O)[C@H](CCCCN)NC(C)=O)[C@@H](C)O)C(=O)N[C@@H](C)C(=O)N1CCC[C@H]1C(N)=O", "target": "Bromodomain adjacent to zinc finger domain protein 2B, bromodomain (BAZ2B, Homo sapiens, UniProt Q9UIF8)", "test": "binding, ITC", "setting": "pH 7.5", "measurement": "Kd", "value": "> 2000 µM"}
{"Compound": "C#CCN(Cc1ccc2nc(N)nc(N)c2c1)c1ccc(C(=O)N[C@@H](CCC(=O)OCC)C(=O)OCC)cc1", "target": "folA", "test": "enzyme activity, inhibitor", "measurement": "IC50", "value": "0.2 µM"}
{"Compound": "CN(C)CCNC(=O)CSc1nc(N)c2c3c(sc2n1)CC(c1ccccc1)CC3 (centres unmarked)", "target": "eis", "test": "inhibitor", "measurement": "IC50", "value": "3 ± 0.6 µM"}
{"Compound": "COC(=O)[C@@H](CCCNC(=O)OC(C)(C)C)NC(=O)c1ccc(NCc2ccc3nc(N)nc(N)c3c2Cl)cc1", "target": "folA", "test": "enzyme activity, inhibitor", "measurement": "IC50", "value": "0.0833 µM"}
{"Compound": "O=C(O)c1cnn(-c2ccccc2)c1OCCCCc1c[nH]c2ccccc12", "target": "Phosphopantetheine adenylyltransferase (coaD, Mycobacterium tuberculosis, UniProt P9WPA5)", "test": "ITC direct titration", "system": "5% DMSO", "setting": "pH 8.0, 25 °C", "measurement": "Kd", "value": "27 ± 4 µM"}
{"Compound": "CC[C@H](C)[C@H](NC(=O)[C@@H]1CCCN1C(=O)[C@H](C)NC(=O)CNC(=O)[C@@H]1CCCN1C(=O)[C@H](CCC(=O)O)NC(=O)CN)C(=O)N[C@@H](CC(=O)O)C(=O)N[C@@H](Cc1ccc(O)cc1)C(=O)N[C@@H](CC(=O)O)C(=O)N[C@@H](CCC(=O)O)C(=O)N[C@@H](Cc1ccc(O)cc1)C(=O)NCC(=O)N[C@@H](CC(=O)O)C(=O)N[C@@H](CO)C(=O)N[C@@H](CO)C(=O)N[C@@H](CCC(=O)O)C(=O)N[C@@H](CCC(=O)O)C(=O)N[C@H](C(=O)NCC(=O)NCC(=O)N[C@@H](C)C(=O)N[C@@H](CCC(=O)O)C(=O)N[C@H](C(=O)N[C@@H](C)C(=O)N[C@@H](CCC(N)=O)C(=O)N1CCC[C@H]1C(=O)N[C@@H](CCCCN)C(=O)N[C@@H](CC(C)C)C(=O)N[C@@H](Cc1ccc(O)cc1)C(=O)N[C@@H](CCC(N)=O)C(=O)N[C@@H](CCCNC(=N)N)C(=O)NCC(=O)N[C@@H](CCC(=O)O)C(=O)NCC(=O)NCC(=O)N[C@@H](CC(N)=O)C(=O)NCC(=O)N[C@@H](CCSC)C(=O)N[C@@H](CCC(=O)O)C(=O)N1CCC[C@H]1C(=O)N[C@H](C(=O)N1CCC[C@H]1C(=O)N[C@@H](CCC(=O)O)C(=O)N[C@@H](CC(=O)O)C(=O)N[C@@H](Cc1ccc(O)cc1)C(=O)N[C@@H](CC(C)C)C(=O)N[C@@H](CCC(N)=O)C(=O)O)[C@@H](C)CC)C(C)C)C(C)C", "target": "Prothrombin (F2, Homo sapiens, UniProt P00734)", "test": "enzyme activity, inhibitor, absorbance", "setting": "pH 8", "measurement": "Ki", "value": "1e-06 µM"}
{"Compound": "CCC1CCc2c(sc3nc(SCCCN4CCCCC4)nc(N)c23)C1 (racemic)", "target": "eis", "test": "inhibitor", "measurement": "IC50", "value": "0.91 ± 0.13 µM"}
{"Compound": "CCCCCn1cc(C(=O)c2cccc3c2CC(C)(C)C3)c2ccccc21", "target": "CNR1 (Homo sapiens, UniProt P21554, I267L)", "test": "G protein activation, agonist, BRET", "measurement": "EC50", "value": "0.115 µM"}
{"note": "Excerpt of the above:"}
{"Compound": "Cc1nc(=O)c2cc(CN(C)c3ccc(C(=O)NCCCc4nn[nH]n4)s3)ccc2[nH]1", "target": "4'-phosphopantetheinyl transferase PptT", "test": "enzyme activity, inhibitor, fluorescence polarization", "setting": "enzyme 100 nM", "measurement": "IC50", "value": "1.01 µM"}
{"Compound": "CCC1CCc2c(sc3nc(SCCN4CCCC4)nc(N)c23)C1 (centres unmarked)", "target": "eis", "test": "inhibitor", "measurement": "IC50", "value": "> 200 µM"}
{"Compound": "O=C1CC(=O)N(c2ccccc2)c2cc(Cl)ccc2N1", "target": "Gabrg2/Gabra5, with β2 subunit (Rattus norvegicus, UniProt P18508+P19969)", "test": "GABA current potentiation, positive allosteric modulator, whole-cell patch clamp", "system": "HEK293", "setting": "with: GABA at EC10", "measurement": "EC50", "value": "0.58 ± 0.18 µM"}
